Experimental data from different studies.
Each line is one published result; not all experiments were run side by side. Values joined by “and” are separate records of one study, mostly repeats; a detail may differ.
CDK4 with cyclin D1: Cyclin-dependent kinase 4, with cyclin D1 (CDK4, Homo sapiens, UniProt P11802)
CDK4 with cyclin D3: Cyclin-dependent kinase 4, with cyclin D3 (CDK4, Homo sapiens, UniProt P11802)
CDK4 with cyclin D: Cyclin-dependent kinase 4, with cyclin D (CDK4, Homo sapiens, UniProt P11802)

For COCC12C(=O)NC3C4(C(OC)CC1O)C1CC5(O)C(OC)C(O)C(OC(C)=O)(C1C5OC(=O)c1ccccc1)C3(O)C(OC)C24 (stereo not drawn), the remaining activity was 94% and 98% (CDK4 with cyclin D1; kinase activity, inhibitor, ProQinase kinase profiling; 25 µM; relative to: control).
With C=CC(=O)N1Cc2nc(-c3cc(-c4cc(Cl)cnc4Cl)c(F)cc3F)n(-c3ccncn3)c2C1 the inhibition was 2% (CDK4 with cyclin D3; cell-free assay, inhibitor; 1 µM).
CN1CC[C@@H](COc2cnc(C#N)cc2-c2ccn3nc(NC(=O)C4CC4)cc3c2)C1 gave an inhibition of -2% (CDK4 with cyclin D3; enzyme activity, inhibitor; 1 µM).
NC(=O)[C@@H](O)C[C@H]1CCc2sc3ncnc(O[C@H]4CC[C@H](N5CCOCC5)CC4)c3c21 has an inhibition of 10% (CDK4 with cyclin D1; enzyme activity, inhibitor; 10 µM).
CCn1cc(C(=O)O)c(=O)c2c(N)c(F)c(NC3CCCCC3)cc21 has an inhibition of 1.7% (CDK4 with cyclin D3; kinase activity; 0.1 µM, with: ATP at Km).
For NC(=O)C[C@H]1CCc2sc3ncnc(O[C@H]4CC[C@H](N5CCOCC5)CC4)c3c21, the inhibition was 6% (CDK4 with cyclin D3; enzyme activity, inhibitor; 10 µM).
Cc1cccc(O[C@H]2CCC[C@@H](C(C)CNCc3ccncc3)C2)c1 (relative stereo) has an inhibition of 0% (CDK4 with cyclin D; kinome profiling; 10 µM).
The remaining activity of CN1C[C@@H](c2c[nH]c3cc(Br)ccc23)NC[C@@H]1c1c[nH]c2cc(Br)ccc12 is reported as 95% (Cyclin-dependent kinase 4, with cyclin D2 (CDK4, Homo sapiens, UniProt P11802); enzyme activity, inhibitor; 10 µM).
For CS(=O)(=O)Nc1cccc(-c2csc3cnc(Nc4ccc(N5CCN(CCCCCOc6cccc7c6C(=O)N(C6CCC(=O)NC6=O)C7=O)CC5)cc4)nc23)c1 (stereo not drawn), the inhibition was 67.1% (Cyclin-dependent kinase 4 (CDK4, Homo sapiens, UniProt P11802); probe labelling, inhibitor, KiNativ chemoproteomics; MOLT-4; 1 µM).
COc1ccc(C(=O)/C=C/c2ccccc2-c2c[nH]c3ccc(C#N)cc23)c(O)c1 has an inhibition of -1% (CDK4 with cyclin D3; enzyme activity, inhibitor; 20 µM).
For C=CC(=O)Nc1cccc(-c2cnc3[nH]cc(C(=O)NC(C)(C)C)c3n2)c1, the inhibition was 1% (CDK4 with cyclin D; enzyme activity, inhibitor; 0.1 µM).
Nc1ncc(-c2cc(-c3cnn(CC(F)(F)F)c3)ncc2F)nc1C(=O)NC1CNCC(F)C1 (stereo not drawn) gave a remaining activity of 112% (CDK4 with cyclin D3; enzyme activity; 1 µM; relative to: DMSO control).

Repeated from above:
CCn1cc(C(=O)O)c(=O)c2c(N)c(F)c(NC3CCCCC3)cc21 has an inhibition of 1.7% (CDK4 with cyclin D3; kinase activity; 0.1 µM, with: ATP at Km).
For NC(=O)C[C@H]1CCc2sc3ncnc(O[C@H]4CC[C@H](N5CCOCC5)CC4)c3c21, the inhibition was 6% (CDK4 with cyclin D3; enzyme activity, inhibitor; 10 µM).
